# Measurements from different studies.
SMILES,assay,test system,setting,Cmax
CCn1cc(C(=O)N2CCOCC2)c(=O)c2cc(NC3Cc4ccccc4C3)cnc21,,"human, fed","oral suspension, 2000 mg single dose, arithmetic mean",3680 ng/mL
CCOc1c([C@H](C)n2nc(C)c3c(N)ncnc32)cc(Cl)c(F)c1[C@@H]1CNC(=O)C1,,"human patients, plasma","oral, 15 mg once daily, cycle 1 day 15, monotherapy, geometric mean",1290 nM
CC(C)[C@H](N)C(=O)NCCCS(=O)(=O)O,,"human, plasma","oral, 256.5 mg twice daily days 2-7, day 7, fed, capsule",7000 ng/mL
COc1ncc(-c2nc3c(n2C(C)C)[C@H](c2ccc(Cl)cc2)N(c2cc(Cl)cn(C)c2=O)C3=O)c(OC)n1,LC-MS/MS,"human, plasma","oral, 100 mg, cycle 2 day 1, high-dose arm",779 ng/mL
CO[C@H]1C[C@@H]2CC[C@@H](C)[C@@](O)(O2)C(=O)C(=O)N2CCCC[C@H]2C(=O)O[C@H]([C@H](C)C[C@@H]2CC[C@@H](OC(=O)NCCOCCOCCOCCOCCOCCOCCOCCOCCC(=O)N3CCc4cc(Cn5nc(-c6ccc7oc(N)nc7c6)c6c(N)ncnc65)ccc4C3)[C@H](OC)C2)C[C@@H](O)[C@H](C)/C=C(\C)[C@@H](O)[C@@H](OC)C(=O)[C@H](C)C[C@H](C)/C=C/C=C/C=C/1C,,"human, plasma","intravenous, 1.6 mg, cycle 1 day 1, arithmetic mean",38.3 ng/mL
Cl.[2H]C([2H])([2H])CC(=O)c1cnc(NC(=O)C2CC2)cc1Nc1cccc(-c2ncn(C([2H])([2H])[2H])n2)c1OC,,"human, fed, multiple dose","oral, 30 mg twice daily, tablet, day 14, geometric mean",283 ng/mL
O=C(O)CCC(=O)O.[2H]C([2H])([2H])Oc1cc(C)c2[nH]ccc2c1CN1CC[C@@H](C2CC2)C[C@H]1c1ccc(C(=O)O)cc1,"LC-MS/MS, geometric mean","human, plasma","600 mg, single dose, fasting",6410 ng/mL
CN1C(=O)[C@@H](NC(=O)c2nnc(Cc3ccccc3)[nH]2)COc2cccnc21,,"healthy human, fasted, plasma","oral, 200 mg single dose, geometric mean",3270 ng/mL
C=CCn1c(=O)c2cnc(Nc3ccc(N4CCN(C)CC4)cc3)nc2n1-c1cccc(C(C)(C)O)n1,,"human, plasma","oral, 125 mg twice daily, cycle 1 day 17, geometric mean, added: durvalumab 1500 mg intravenous",606 nM
O=C(COc1ccc(Cl)cc1)NC12CC(c3nnc([C@H]4C[C@@H](OC(F)(F)F)C4)o3)(C1)C2,,"healthy human volunteers fasted, plasma","oral, 800 mg single dose, arithmetic mean",7610 nM

# A few entries again:
SMILES,assay,test system,setting,Cmax
COc1ncc(-c2nc3c(n2C(C)C)[C@H](c2ccc(Cl)cc2)N(c2cc(Cl)cn(C)c2=O)C3=O)c(OC)n1,LC-MS/MS,"human, plasma","oral, 100 mg, cycle 2 day 1, high-dose arm",779 ng/mL
